Results of several laboratories.
A part holds a random share of what one study measured.

Series 1
Target: Ras GTPase-activating protein-binding protein 1, full length (G3BP1, Homo sapiens, UniProt Q13283)
Sequence of UniProt Q13283 (whole entry, looked up): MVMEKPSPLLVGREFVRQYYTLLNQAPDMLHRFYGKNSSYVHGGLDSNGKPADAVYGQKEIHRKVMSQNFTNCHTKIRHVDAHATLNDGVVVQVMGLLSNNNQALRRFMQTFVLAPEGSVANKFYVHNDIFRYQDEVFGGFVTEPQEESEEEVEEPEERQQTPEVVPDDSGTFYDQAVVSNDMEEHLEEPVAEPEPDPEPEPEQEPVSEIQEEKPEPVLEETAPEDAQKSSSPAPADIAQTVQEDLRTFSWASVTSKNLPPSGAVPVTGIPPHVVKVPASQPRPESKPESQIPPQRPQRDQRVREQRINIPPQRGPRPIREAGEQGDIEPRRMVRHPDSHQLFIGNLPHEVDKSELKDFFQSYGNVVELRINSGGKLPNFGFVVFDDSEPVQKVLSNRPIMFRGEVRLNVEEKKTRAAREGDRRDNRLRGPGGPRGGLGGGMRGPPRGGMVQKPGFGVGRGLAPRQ
Method: RNA Bind-n-Seq
Form: RNA
Sample: in vitro
Tested at: 200 nM
Notes: whole 134-nt RNA, ends assumed
Added: 150 mM LiCl
Relative to: input library
Direction: higher = stronger binding
Library: 7-deaza-guanosine replaces G
| Sequence | log2 enrichment |
| --- | --- |
| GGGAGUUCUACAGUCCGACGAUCUGGCCCUGGUGGCAUGCGGGGAGGAAGAGGUGGCCUCAUGGAUCGUGGUCGUCCCGGUGGAAUGUUCAGAGGUGGCCGUGGUGGAGACAGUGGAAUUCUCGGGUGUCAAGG | 0.763 |
| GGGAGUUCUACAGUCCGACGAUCUCCUCAAGUCCUGUGCUACACAUCGUAUGUACCGAAUCGGGGCGGGCGGCGGAAAGUAUUAUGUUACGCCGUUCGGAUCUGCACUUCCAGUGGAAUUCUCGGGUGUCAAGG | 0.072 |
| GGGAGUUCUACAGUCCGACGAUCCAAGUCCUGUGCUACACAUCGUAUGUACCGAAUCGUGUGUGUGUGUGUGUGUGUGUAAAGUAUUAUGUUACGCCGUUCGGAUCUGCACUUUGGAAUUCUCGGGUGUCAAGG | -0.828 |
| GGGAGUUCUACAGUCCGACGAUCUAGCAAGCCAAAUUACAGCAGCAGAUGGACCUGCAGAAAAAUCACAUUUUCCGUCUGACUCAAGGACUGCAAGAAGCUCUAGAUCGGGCUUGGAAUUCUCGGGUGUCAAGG | -3.12 |
| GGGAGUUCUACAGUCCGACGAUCGUCCUGUGCUACACAUCGUAUGUACCGAAUCGGAAAAAAGGGAAAAAAGGAAAAAAGGAAAGUAUUAUGUUACGCCGUUCGGAUCUGCACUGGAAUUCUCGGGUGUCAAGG | -0.718 |
| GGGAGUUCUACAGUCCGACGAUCAAGUCCUGUGCUACACAUCGUAUGUACCGAAUCGGGAAAAGGAAAAGGGAAAAGGGAAAGUAUUAUGUUACGCCGUUCGGAUCUGCACUUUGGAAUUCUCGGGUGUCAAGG | -0.161 |
| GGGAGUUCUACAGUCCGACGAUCCUCAAGUCCUGUGCUACACAUCGUAUGUACCGAAUCGGGUUGGGUUGGUUGGGAAAGUAUUAUGUUACGCCGUUCGGAUCUGCACUUCCAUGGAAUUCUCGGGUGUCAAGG | 0.565 |
| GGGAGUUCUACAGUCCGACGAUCAGUCCUGUGCUACACAUCGUAUGUACCGAAUCGGUUUGGAAAAAAAGGUUUUUUUGGAAAGUAUUAUGUUACGCCGUUCGGAUCUGCACUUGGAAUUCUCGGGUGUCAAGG | -2.41 |
| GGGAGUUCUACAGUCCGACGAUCCUCAGACAACACGCACCCACACAGACACAGAGGGAAGGGGUUGGGAUGGGGACAGGGUGCACAGCAGGGCGGGGUAGGACCCCAGCCCCUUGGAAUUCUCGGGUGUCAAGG | -0.982 |
| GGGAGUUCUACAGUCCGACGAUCUUCUCUUCACUCCCACCAGUGCGGGUGGUCUUUGCAGUGACUAUGGAAGGCAGUGCACGGAAAGUCAUCACUGUCCGGUCAGCCCUCAUUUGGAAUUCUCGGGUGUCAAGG | 0.687 |
| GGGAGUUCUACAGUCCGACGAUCCCUCAAGUCCUGUGCUACACAUCGUAUGUACCGAAUCGGGGUGGGUGGGGUGGAAAGUAUUAUGUUACGCCGUUCGGAUCUGCACUUCCAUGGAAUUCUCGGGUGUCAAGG | -0.863 |

Series 2
Target: Interferon regulatory factor 5, full length, phosphomimetic (IRF5, Homo sapiens, UniProt Q13568-2, residues 1-514, K96S/S451D/S453D/S456D/S462D)
Method: protein-binding microarray
Form: double-stranded DNA, one strand shown
Sample: in vitro
Tested at: 250 nM
Notes: 60-bp whole probe
Added: salmon DNA 0.4 mg/ml
Relative to: random background probes
Direction: higher = stronger binding
Shared flanks, not repeated: GCCTAGCAC … GTCTTGATTCGCTTGACGCTGCTG
| Sequence | log fluorescence [z-score] |
| --- | --- |
| TTAGGAATGCTTCTCCTTTAGTGCTAG | -0.355 |
| TCAAGCATGGATCTGGGACTGTGCTAG | -0.613 |
| GACGATATCGACTATCGGGACGTGCTA | 3.32 |
| TTAGGTTGCCTTATCCTTTAGTGCTAG | 0.0309 |
| TCACATTTCAATTAGAAACTGTGCTAG | 1.17 |
| GCATTTTTTTTTTCTACTTCGTGCTAG | 1.02 |
| TCAGGACTGGGACTGGGTTAGTGCTAG | -0.462 |
| TATCAGTAGGTAAGGAAAAGGTGCTAG | 5.02 |
| GACGGTATCGGGGCTGGGGACGTGCTA | 0.979 |
| GACGGTATGGGGTATCGGGACGTGCTA | 0.329 |
| GACGGTTTCTTTTTCCTGACGTGCTAG | 1.54 |
| GACGGTCTCCGTCTCGGGACGTGCTAG | -0.391 |
| TAGCTTCTCAATTAAAAAAAGTGCTAG | 0.545 |
| GACGGTTTCGGGTATCGGTACGTGCTA | 8.67 |
| TCAAAAAATGATTGGTTACTGTGCTAG | 0.434 |
| TTAGATATCGTGACTGGATTAGTGCTA | 0.511 |
| AAAATGATTTTTTTCATATAGTGCTAG | 1.23 |
| TTAGAACTGAGTCTCAATTAGTGCTAG | 0.263 |
| GACGATTCAAGTTTCGAGACGTGCTAG | 4.03 |
| TTAGGACTGGGGACTGGGTTAGTGCTA | -0.482 |
| GACGATCTCAGACTGGAGGCGTGCTAG | -0.488 |

Series 3
Target: Sal-like protein 4, full length isoform B (SALL4, Homo sapiens, UniProt Q9UJQ4-2, residues 1-616)
Method: universal PBM
Form: double-stranded DNA, one strand shown
Sample: in vitro
Tested at: not given
Notes: 8-mer, flanks averaged, mean of replicates
Direction: higher = stronger binding
| Sequence | E-score |
| --- | --- |
| CCGGAAAC | -0.191 |
| CTGTTTTA | 0.191 |
| ATTGGGAG | -0.0662 |
| CTTACGAA | 0.175 |
| ATGGCTAC | 0.14 |
| CTGTAAGC | -0.0598 |
| AAGGCGGG | -0.214 |
| AGAATGTC | 0.0729 |
| CCTGAGCC | -0.304 |
| ATAAGCGG | 0.115 |
| GCATAACC | 0.00559 |
| CAATCTGG | -0.061 |
| CCGCCCCC | -0.302 |
| ACACTTAA | 0.221 |
| CCCCGTTC | -0.197 |
| AGCACCCT | -0.241 |
| CAACTGAA | -0.0345 |
| CTTGACGC | -0.198 |
| GGAGGAAC | -0.147 |
| CGTCGTAA | 0.00734 |
| AGCATCTC | -0.0437 |
| GGAAGGGA | -0.257 |
| TCATCGAA | 0.101 |
| GCCAAAAC | -0.0302 |
| GATACGCA | 0.0328 |

Series 4
Target: RNA binding protein fox-1 homolog 2, RRM domain, GST-SBP tag (RBFOX2, Homo sapiens, UniProt O43251-10, residues 100-194)
Method: RNA Bind-n-Seq
Form: RNA
Sample: in vitro
Tested at: 365 nM
Notes: natural RNA segment, single round, ends assumed
Relative to: no-protein control
Direction: higher = stronger binding
Target sequence (chain): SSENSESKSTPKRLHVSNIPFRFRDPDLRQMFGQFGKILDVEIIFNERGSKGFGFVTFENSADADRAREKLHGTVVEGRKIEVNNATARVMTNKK
| Sequence | RBNS enrichment (R) |
| --- | --- |
| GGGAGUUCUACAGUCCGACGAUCCAGGAUGGCAACAGAUUGGAUGUGCUAUCUCAGUGCCUGCAGGUCUCUCUGCUCGAGGCAGCAGGGGGCGCUUUGCAGUAUAGUUGAGGAAAAUGACCGCUCCUUGACCAUGGAAUUCUCGGGUGCCAA | 0.313 |
| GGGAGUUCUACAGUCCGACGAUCUCACCGUCUCCGCACUGUGCCUGCGGGUCACCAGAGACAAGGCCUUCCUCAGGGACGUACAGGCUGUCUGCUGAGCAGCCCCCACUCUUCUUUAUGGCAACAGGAGGAGAUGGAAUUCUCGGGUGCCAA | 0.344 |
| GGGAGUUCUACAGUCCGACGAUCCUUAUGUGACAUUUUGCCUUAAGAAUAUAAAAGUGCUUUAGCACUGAUGGCUGGCAUUUUUAAUAUAGGCAGUGAAAGUGACUUUAGAAGCAUGGGAUGAAAUAGAGGGAUGGAAUUCUCGGGUGCCAA | 0.793 |
| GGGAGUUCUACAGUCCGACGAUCCUGUCCUUUUGUCUACACAUGCGUGCUGACCUUACCUGUGAGUCCACUGCCUUCGUGAAGGAUGCUCCGAGCCAUGAAACAUGUUCCUAGAUGUCGUUAAUCCCACCCACUGGAAUUCUCGGGUGCCAA | 0.915 |
| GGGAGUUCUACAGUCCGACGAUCGACUUUCAUGUGGUAAAUAUGCAUUUGGUCUGUACUGAUCAUGGAAUAAACACAUCUCUCUUUUUUAUGCUGCUGUCUCCCUGAAAUUUCUUUGUGAAGCAACUAGGUAUUGGAAUUCUCGGGUGCCAA | 0.567 |
| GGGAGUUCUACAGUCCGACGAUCUGGCCUGGAUGCUUCCUCUCCCUGUCUCUCCCUUGCCCCACAGCGGUUCCCUGACAGCAGACAAGGCAGCUCUGGGAGGUAGCUAGUAUCCAAUAACCCAGGGGUUUCCUUGGAAUUCUCGGGUGCCAA | 0.361 |
| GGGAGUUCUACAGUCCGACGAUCUCACCACCUGGUCCUAAUUUAUGUGCAGGAGCACGACACCACUUGUCUCCAGCGCCACACAUCCGAGGUGUACUUUGUGUGCAGAAUGUGUCUUCCUUCUGGCCUGUAAUUGGAAUUCUCGGGUGCCAA | 0.371 |
| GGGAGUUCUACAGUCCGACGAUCUGGAGACAGCCUGAAAAGCAAAGGCCUCAUCUCCAUGGCACAGGGGAGAAGCGCAUCUACCGGGUGCCUGUUUUCACAGCGCCCUUCUGCCAGGCCCUGCUGGAAGAGCUUGGAAUUCUCGGGUGCCAA | 0.686 |
| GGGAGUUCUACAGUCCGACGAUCUAUAUGGGUAGAUUUUAUUAUGUACACAAAGACAAAUGGACCCUGAGAAAUGUAUGCGUUUGUAAACUUGCCAUGGGUCCGAAUAUUUUCAAGCCAUGUAAUCCAUUAAUUGGAAUUCUCGGGUGCCAA | 0.444 |
| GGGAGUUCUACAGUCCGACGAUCAGAAAGAAUAGAAGCGGGAGGCCCGCCCCGGUGGACACUAAGAUGGACCUCAAGUAGACUGCUCCUUGUACUUGAAGCGCUUACCUUUUGAUUUCCUGACUUUAUGUUCUUGGAAUUCUCGGGUGCCAA | 0.406 |
| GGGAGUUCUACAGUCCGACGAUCAUUUCUUUCAGGUCUCAACUGUGGUGUUUUAAGUGCAGGGAAAAGGAACAAUCACAGCUAUGUGUGACUUUCCUUUUCCCACCUCACCUUGAUGUAGGUGUUUCAAGUGAUGGAAUUCUCGGGUGCCAA | 0.464 |
| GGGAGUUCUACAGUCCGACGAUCUUUUCUCUGCUUCCUCAGCCCAGGAAGAACUUGUGUUGCAUUGGCUGUGAGAGCGGGAUGGGGACGACAUGAAUCACAGCUUUGCUGUGAGCUUUCUCUCGUGCAGUUUCUGGAAUUCUCGGGUGCCAA | 0.364 |

A few entries again (series 2):
| Sequence | log fluorescence [z-score] |
| --- | --- |
| GACGGTTTCTTTTTCCTGACGTGCTAG | 1.54 |
| GACGGTCTCCGTCTCGGGACGTGCTAG | -0.391 |
| TAGCTTCTCAATTAAAAAAAGTGCTAG | 0.545 |
| GACGGTTTCGGGTATCGGTACGTGCTA | 8.67 |
| TCAAAAAATGATTGGTTACTGTGCTAG | 0.434 |
| TTAGATATCGTGACTGGATTAGTGCTA | 0.511 |
| AAAATGATTTTTTTCATATAGTGCTAG | 1.23 |
